Results from different studies.
“And” joins repeats or separate records; there may be more than shown.
Target: TGF-beta receptor type-1 (TGFBR1, Homo sapiens, UniProt P36897)
One construct used (P36897 34-503): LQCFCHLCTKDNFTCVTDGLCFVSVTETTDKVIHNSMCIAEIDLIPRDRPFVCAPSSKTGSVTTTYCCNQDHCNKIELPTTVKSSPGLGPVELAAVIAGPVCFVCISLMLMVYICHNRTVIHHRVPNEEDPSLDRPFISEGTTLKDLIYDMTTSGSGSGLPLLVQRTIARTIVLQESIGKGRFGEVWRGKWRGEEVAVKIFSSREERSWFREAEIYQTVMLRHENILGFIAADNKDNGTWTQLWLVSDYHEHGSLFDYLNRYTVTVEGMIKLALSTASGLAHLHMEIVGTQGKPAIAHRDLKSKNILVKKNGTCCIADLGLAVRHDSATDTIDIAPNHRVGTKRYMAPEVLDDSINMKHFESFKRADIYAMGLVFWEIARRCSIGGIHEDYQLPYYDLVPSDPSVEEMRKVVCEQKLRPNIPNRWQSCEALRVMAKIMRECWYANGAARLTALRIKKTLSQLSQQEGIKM

For `Cc1cnc2nc1Nc1cccc(c1)COC/C=C/COCc1cc(ccc1OCCN1CCOCC1)N2`, the remaining binding was 90% (binding, competition with immobilised ligand; 0.1 µM).
`COc1cc(Nc2nc(C)cc(-c3cnn4nc(OC)ccc34)n2)cc(C(F)(F)F)c1` has a remaining binding of 100% (binding, competition with immobilised ligand; 1 µM).
`Cc1ccc(C(=O)Nc2ccc(CN3CCN(C)CC3)c(C(F)(F)F)c2)cc1C#Cc1cnc2cccnn12` has a Hill slope of -0.413 (target engagement, NanoBRET; human cells).
`CNC(=O)C1CCN(c2cc(C)c(F)cc2NC(=O)c2ccc(-c3cc(O)ccc3C)c(C)c2)CC1` gave a remaining binding of 94% (binding, competition with immobilised ligand; 1 µM).
For `N[C@H]1CC[C@H](Nc2nccc(-c3cccnc3Oc3ccc(NC(=O)NC4CC4)c4ccccc34)n2)CC1`, “log2 LFQ intensity” read 25.2 and 25.1 (kinobead competition pulldown; HEK293/HCT116 lysate mixture; 10 µM, 1 h, 4 °C; lower = stronger competition).
`CN1CC[C@@H](COc2cnc(C#N)cc2-c2ccn3nc(NC(=O)C4CC4)cc3c2)C1` gave an inhibition of 9% (enzyme activity, inhibitor; 1 µM).
`C=CC(=O)N1CCCC(n2c(=O)c3ncccc3n(Cc3ccc(Oc4ccccc4)cc3)c2=O)C1` (centres unmarked) has a remaining binding of 95% (cell-free assay, competition with immobilised ligand; 1 µM).
For `CCN1CCN(Cc2ccc(NC(=O)c3ccc(C)c(NC(=O)c4cncc(-c5cnn(C)c5)c4)c3)cc2C(F)(F)F)CC1`, the remaining binding was 91% (binding, competition with immobilised ligand; 1 µM).
`COc1ccc(NC(=O)Nc2ccc3c(c2)C(=O)N(C(C)CO)CC(C)C(CN(C)Cc2ccc4c(c2)OCO4)O3)cc1` (centres unmarked) gave a remaining activity of 101% (kinase activity, KinaseProfiler; 0.03 µM, species human; reference: control).
`Nc1ncc2c(n1)-c1c([nH]c3ccc(C4=CCOCC4)cc13)CCC2` has a remaining binding of 100% (binding, competition with immobilised ligand; 1 µM).
With `COCC12C(=O)NC3C4(C(OC)CC1O)C1CC5(O)C(OC)C(O)C(OC(C)=O)(C1C5OC(=O)c1ccccc1)C3(O)C(OC)C24` (centres unmarked) the remaining activity was 88% and 100% (kinase activity, inhibitor, ProQinase kinase profiling; 25 µM; reference: control).
`CC(C)=CC1OC(C)(C)C2C=C3C(=O)C(Cl)=CC(O)C3C3C(O)C4OC4C(=O)C132` (centres unmarked) gave a remaining binding of 80% (cell-free assay, competition with immobilised ligand; 10 µM).
With `CN1CCN(Cc2ccc(-c3ccc(CO[C@H]4CCC[C@@H]4NC(=O)c4cc(-c5cnn(C)c5)cnc4N)cc3)cc2)CC1` the inhibition was 3% (enzyme activity, inhibitor; 0.1 µM).
The remaining signal of `C=C1CCCCCCCCCC(CO)C1=O` (centres unmarked) is reported as 100% (cell-free assay; 10 µM).
For `Nc1ncc(-c2cc(-c3cnn(CC(F)(F)F)c3)ncc2F)nc1C(=O)NC1CNCC(F)C1` (centres unmarked), the remaining activity was 106% (enzyme activity; 1 µM; reference: DMSO control).
The inhibition of `NC(=O)[C@@H](O)C[C@H]1CCc2sc3ncnc(O[C@H]4CC[C@H](N5CCOCC5)CC4)c3c21` is reported as -5% (enzyme activity, inhibitor; 10 µM).
`CN1CCN(Cc2ccc(NC(=O)c3cccc(C#Cc4cnc(N)c5ncccc45)c3)cc2C(F)(F)F)CC1` gave a remaining binding of 100% (cell-free assay, competition with immobilised ligand; 50 nM).

Excerpt of the above:
For `CCN1CCN(Cc2ccc(NC(=O)c3ccc(C)c(NC(=O)c4cncc(-c5cnn(C)c5)c4)c3)cc2C(F)(F)F)CC1`, the remaining binding was 91% (binding, competition with immobilised ligand; 1 µM).
